Published values gathered from unrelated publications.
WRKY11 full length assumed: WRKY11 full length assumed (Arabidopsis thaliana, UniProt Q9SV15)
Chain of UniProt Q9SV15 (whole entry, looked up): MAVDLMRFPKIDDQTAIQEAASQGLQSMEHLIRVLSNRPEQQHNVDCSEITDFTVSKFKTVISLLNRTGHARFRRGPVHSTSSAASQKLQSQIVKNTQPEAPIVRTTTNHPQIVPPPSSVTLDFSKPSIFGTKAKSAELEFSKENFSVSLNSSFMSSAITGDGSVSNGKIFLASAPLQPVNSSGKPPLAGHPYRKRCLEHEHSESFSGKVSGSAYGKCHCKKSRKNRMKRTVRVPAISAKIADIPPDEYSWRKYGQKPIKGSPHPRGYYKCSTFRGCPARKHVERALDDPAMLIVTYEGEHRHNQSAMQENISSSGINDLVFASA
Transcription factor bHLH93: Transcription factor bHLH93 (Gossypium hirsutum, UniProt A0ABM3A805)
brat: brat 756-1037 (Drosophila melanogaster, UniProt Q8MQJ9)
Chain of UniProt Q8MQJ9 (whole entry, looked up): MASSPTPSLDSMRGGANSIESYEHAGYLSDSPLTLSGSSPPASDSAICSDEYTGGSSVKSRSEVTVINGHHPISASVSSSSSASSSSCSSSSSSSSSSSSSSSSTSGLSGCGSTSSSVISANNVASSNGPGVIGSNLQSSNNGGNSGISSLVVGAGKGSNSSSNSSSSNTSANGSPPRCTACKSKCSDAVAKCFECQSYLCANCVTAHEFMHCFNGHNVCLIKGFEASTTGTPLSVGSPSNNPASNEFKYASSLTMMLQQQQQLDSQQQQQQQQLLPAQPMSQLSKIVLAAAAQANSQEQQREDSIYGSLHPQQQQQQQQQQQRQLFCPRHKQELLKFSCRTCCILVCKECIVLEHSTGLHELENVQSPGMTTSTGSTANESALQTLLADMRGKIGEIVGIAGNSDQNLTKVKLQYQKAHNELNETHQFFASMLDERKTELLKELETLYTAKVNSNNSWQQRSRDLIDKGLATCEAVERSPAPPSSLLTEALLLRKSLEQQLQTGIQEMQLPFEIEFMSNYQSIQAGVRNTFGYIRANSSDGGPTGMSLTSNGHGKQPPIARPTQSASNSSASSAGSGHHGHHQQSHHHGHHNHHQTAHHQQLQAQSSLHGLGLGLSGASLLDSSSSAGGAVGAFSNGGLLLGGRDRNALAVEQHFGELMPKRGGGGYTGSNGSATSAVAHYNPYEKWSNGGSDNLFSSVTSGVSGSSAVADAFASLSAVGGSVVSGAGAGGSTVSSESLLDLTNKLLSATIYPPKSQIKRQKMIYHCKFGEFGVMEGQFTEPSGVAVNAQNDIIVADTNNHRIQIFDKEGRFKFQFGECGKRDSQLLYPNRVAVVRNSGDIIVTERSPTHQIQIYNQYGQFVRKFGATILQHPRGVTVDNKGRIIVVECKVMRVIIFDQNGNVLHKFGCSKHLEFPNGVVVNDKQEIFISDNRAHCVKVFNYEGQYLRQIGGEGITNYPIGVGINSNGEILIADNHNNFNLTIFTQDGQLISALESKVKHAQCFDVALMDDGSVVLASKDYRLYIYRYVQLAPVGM
T1: Aebp2 223-496 (Mus musculus); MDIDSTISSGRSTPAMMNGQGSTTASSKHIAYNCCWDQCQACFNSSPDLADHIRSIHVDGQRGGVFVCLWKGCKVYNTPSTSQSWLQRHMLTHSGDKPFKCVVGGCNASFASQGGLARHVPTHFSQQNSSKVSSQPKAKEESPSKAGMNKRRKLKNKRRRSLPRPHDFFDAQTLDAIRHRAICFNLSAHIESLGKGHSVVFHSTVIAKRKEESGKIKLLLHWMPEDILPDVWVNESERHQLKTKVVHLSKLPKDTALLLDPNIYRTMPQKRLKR
T2: ZFP57 residues 227-287 C232F (Homo sapiens); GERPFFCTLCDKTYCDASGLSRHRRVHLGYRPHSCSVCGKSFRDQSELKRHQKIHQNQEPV
T3: NFATC3 393-708; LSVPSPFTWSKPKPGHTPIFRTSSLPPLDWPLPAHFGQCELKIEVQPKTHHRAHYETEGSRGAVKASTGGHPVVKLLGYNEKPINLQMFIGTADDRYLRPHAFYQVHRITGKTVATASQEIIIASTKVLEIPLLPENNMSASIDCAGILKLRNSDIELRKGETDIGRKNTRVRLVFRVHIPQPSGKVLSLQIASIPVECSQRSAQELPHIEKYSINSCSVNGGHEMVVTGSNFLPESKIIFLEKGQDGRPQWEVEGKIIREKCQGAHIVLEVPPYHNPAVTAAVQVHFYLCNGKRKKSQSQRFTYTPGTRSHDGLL
Chain of UniProt P97454 (whole entry, unmodified, looked up): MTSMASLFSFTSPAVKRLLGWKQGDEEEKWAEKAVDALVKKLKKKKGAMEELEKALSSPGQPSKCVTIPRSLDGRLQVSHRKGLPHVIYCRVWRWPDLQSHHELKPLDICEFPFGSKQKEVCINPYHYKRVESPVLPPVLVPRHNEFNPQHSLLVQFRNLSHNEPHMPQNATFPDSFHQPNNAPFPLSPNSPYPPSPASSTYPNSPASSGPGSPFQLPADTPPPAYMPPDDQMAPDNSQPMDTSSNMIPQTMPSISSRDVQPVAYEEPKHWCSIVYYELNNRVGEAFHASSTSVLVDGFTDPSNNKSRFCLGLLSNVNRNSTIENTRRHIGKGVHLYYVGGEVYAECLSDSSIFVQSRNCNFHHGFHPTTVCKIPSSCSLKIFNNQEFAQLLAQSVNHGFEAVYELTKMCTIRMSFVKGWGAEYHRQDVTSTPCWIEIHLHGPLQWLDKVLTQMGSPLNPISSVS
Chain of UniProt P09086 (whole entry, looked up): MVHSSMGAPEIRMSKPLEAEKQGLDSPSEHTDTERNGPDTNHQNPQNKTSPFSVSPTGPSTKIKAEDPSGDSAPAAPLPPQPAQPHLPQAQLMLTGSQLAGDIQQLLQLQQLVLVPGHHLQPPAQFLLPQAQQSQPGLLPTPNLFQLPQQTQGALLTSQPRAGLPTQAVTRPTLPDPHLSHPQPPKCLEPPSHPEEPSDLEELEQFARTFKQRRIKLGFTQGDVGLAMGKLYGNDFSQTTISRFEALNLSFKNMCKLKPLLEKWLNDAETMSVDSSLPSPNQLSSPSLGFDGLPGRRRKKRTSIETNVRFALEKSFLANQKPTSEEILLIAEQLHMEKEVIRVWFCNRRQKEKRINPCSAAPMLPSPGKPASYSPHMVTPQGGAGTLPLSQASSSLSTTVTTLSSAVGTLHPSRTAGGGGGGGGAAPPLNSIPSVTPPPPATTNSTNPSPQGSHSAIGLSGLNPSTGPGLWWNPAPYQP
Chain of UniProt O31691 (whole entry, looked up): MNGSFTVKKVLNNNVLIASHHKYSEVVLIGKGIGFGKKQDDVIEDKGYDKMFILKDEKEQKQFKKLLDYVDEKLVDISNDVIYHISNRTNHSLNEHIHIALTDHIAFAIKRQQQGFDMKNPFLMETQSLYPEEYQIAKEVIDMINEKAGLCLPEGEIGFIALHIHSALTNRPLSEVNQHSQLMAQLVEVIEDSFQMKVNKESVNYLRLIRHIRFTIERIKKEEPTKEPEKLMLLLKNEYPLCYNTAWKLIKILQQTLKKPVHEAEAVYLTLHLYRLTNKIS
Chain of UniProt Q7Z739 (whole entry, looked up): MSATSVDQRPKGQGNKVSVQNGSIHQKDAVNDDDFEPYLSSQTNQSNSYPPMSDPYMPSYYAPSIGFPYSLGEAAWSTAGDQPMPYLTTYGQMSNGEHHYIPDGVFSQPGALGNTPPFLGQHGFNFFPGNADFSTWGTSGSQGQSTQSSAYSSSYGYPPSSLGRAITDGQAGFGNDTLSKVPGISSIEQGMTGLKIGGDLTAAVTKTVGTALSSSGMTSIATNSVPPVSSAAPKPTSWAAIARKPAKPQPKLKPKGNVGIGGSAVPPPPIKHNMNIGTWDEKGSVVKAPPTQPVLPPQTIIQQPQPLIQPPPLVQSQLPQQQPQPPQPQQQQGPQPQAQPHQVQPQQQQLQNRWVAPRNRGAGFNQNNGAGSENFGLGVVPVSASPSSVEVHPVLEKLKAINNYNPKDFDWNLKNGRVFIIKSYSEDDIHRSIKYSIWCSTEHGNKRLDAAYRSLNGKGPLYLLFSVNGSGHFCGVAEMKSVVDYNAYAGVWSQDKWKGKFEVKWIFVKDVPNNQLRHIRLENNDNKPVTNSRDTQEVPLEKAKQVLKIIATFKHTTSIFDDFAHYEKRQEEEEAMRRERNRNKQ
Chain of UniProt Q96PU8 (whole entry, looked up): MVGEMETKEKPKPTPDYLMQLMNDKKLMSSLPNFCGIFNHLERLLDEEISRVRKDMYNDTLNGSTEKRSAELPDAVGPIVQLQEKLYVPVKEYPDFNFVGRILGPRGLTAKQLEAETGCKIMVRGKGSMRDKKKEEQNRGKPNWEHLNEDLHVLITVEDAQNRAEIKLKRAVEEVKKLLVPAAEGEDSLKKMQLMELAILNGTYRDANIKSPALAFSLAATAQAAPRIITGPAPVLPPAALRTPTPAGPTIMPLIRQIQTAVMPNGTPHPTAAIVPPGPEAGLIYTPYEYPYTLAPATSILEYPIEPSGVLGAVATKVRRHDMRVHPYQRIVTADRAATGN
Chain of UniProt P17676 (whole entry, looked up): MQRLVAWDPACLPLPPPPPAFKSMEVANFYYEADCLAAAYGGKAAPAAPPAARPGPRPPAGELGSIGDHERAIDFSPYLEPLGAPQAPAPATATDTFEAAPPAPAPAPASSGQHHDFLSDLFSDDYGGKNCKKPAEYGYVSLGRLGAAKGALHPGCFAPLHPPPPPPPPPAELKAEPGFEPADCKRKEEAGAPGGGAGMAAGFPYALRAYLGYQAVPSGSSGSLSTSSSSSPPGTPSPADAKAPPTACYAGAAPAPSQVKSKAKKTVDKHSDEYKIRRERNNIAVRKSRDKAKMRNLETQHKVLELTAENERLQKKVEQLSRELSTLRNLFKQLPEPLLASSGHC

| Sequence | target | method | form | setting | added | binding |
| --- | --- | --- | --- | --- | --- | --- |
| TTGAAAATATGTGTAATATT (dsDNA) | POU2F2 full length assumed (Homo sapiens, UniProt P09086) | competition | double-stranded DNA, one strand shown | not purified |  | no binding |
| TTATTCAGCCATCAAAAGTTGATCAATAAT (dsDNA) | WRKY11 full length assumed | EMSA | double-stranded DNA, one strand shown |  |  | no binding |
| GGUAUACUAAAAU (ssRNA) | QKI 76-205 (Homo sapiens, UniProt Q96PU8) | NMR titration | RNA |  |  | binds |
| GATCTTTAGTTAACAAAAAAACTGTCTGCAGGCCACTCCAGATC (dsDNA) | T1, Aebp2 223-496 (Mus musculus) | competition binding | double-stranded DNA, one strand shown |  | labelled T1 probe | no binding |
| ATCACATTAACATCTGGCCTATATAA (dsDNA) | Transcription factor bHLH93 | EMSA | double-stranded DNA, one strand shown |  |  | binds |
| UUAUGUACAAUUUUCGACAACAAAAUA (ssRNA) | brat | EMSA | RNA |  |  | no binding |
| GAGATTAGAACACATGGATTGAATTT (dsDNA) | Transcription factor bHLH93 | EMSA | double-stranded DNA, one strand shown |  |  | binds |
| TTATTCAGCCATCAAAGGTTGACCAGTAAT (dsDNA) | WRKY11 full length assumed | EMSA | double-stranded DNA, one strand shown |  |  | binds |
| TGGGCTTTGCCGCCCGCGGC (dsDNA (Homo sapiens); 5-methylcytosine) | T2, ZFP57 residues 227-287 C232F (Homo sapiens) | EMSA | double-stranded DNA, one strand shown |  |  | binds |
| TTATTCAGCCATCAAAAGTTGACCGATAAT (dsDNA) | WRKY11 full length assumed | EMSA | double-stranded DNA, one strand shown |  |  | binds |
| ATCAGTCTAGACATACA (dsDNA) | Smad5 1-143 H80A (Mus musculus, UniProt P97454) | EMSA | double-stranded DNA, one strand shown |  |  | binds |
| DNA 1 GTCGACCAGCTGAGTCGACCAGCTG / DNA 2 CAGCTGGTCGAC / DNA 3 CAGCTGGTCGAC (dsDNA; nicked, N6-methyl-dA) | YTHDF3 400-585 (Homo sapiens, UniProt Q7Z739) | pull-down | double-stranded DNA |  |  | binds |
| CTTCCTCCAGATGAGCTCATGGGTTTCTCCACCAAGGAAGTTTTCCGCTGGTTG (dsDNA) | T3, NFATC3 393-708 | EMSA | double-stranded DNA, one strand shown |  |  | binds |
| AGAAACAACTTGACCCTTTACATTGCTCAAGAGCTCATCTCTT (dsDNA) | Uncharacterized protein 424-651 (Zea mays, UniProt A0A1D6GZW1) | EMSA | double-stranded DNA, one strand shown |  |  | binds |
| GGGAGACCUAGCCUCAUAUAAUCGUUGUCCAGAAUUGUAUAUAUUCGUAGCAUAAGUUUUCCAAACAUUAUUUUGGGGUCGAAAAUUGUACAUAAGCCAAUUAAGCCGCUA (ssRNA) | brat | EMSA | RNA |  |  | no binding |
| GTGGATCTTTCACTTCCTTAGTTAGAGTCACGCCAATGTATTTTATA (dsDNA) | T1, Aebp2 223-496 (Mus musculus) | competition binding | double-stranded DNA, one strand shown |  | labelled T1 probe | binds |
| GUUCUUUUUUGCUUUUUUUUGGGCUUUUUCUCAUU (ssRNA) | Uncharacterized protein (Zea mays, UniProt K7TID7) | EMSA | RNA |  |  | binds |

| Sequence | target | method | form | setting | added | binding |
| --- | --- | --- | --- | --- | --- | --- |
| TTATTCAGCCATCAAAAGTTGACCCATAAT (dsDNA) | WRKY11 full length assumed | EMSA | double-stranded DNA, one strand shown |  |  | binds |
| TGCTGATTGGCCATGTGCGCTCACCCGAGGGGCGGGG (dsDNA) | HIF1A/ARNT (Homo sapiens) | EMSA | double-stranded DNA, one strand shown | not purified |  | binds |
| TTATTCAGCCATCAAAAGATGACCAATAAT (dsDNA) | WRKY11 full length assumed | EMSA | double-stranded DNA, one strand shown |  |  | no binding |
| AGTCCCTCTCCAGAACTTTCCCACAACAACCA (dsDNA) | HSF-type DNA-binding domain-containing protein 1-200 (Malus domestica, UniProt A0A498J7G8) | EMSA | double-stranded DNA, one strand shown |  |  | binds |
| ATCGATTCACATTCTTCTACATGATAACCACCAGTTGTGCCAGCACCATTTGTT (dsDNA) | T1, Aebp2 223-496 (Mus musculus) | competition binding | double-stranded DNA, one strand shown |  | labelled T1 probe | binds |
| ACATCGTATCCATGTGATATATCACA (dsDNA) | Transcription factor bHLH93 | EMSA | double-stranded DNA, one strand shown |  |  | binds |
| CGCCTGGCGCCAGAGA (dsDNA) | Smad5 1-143 (Mus musculus, UniProt P97454) | EMSA | double-stranded DNA, one strand shown |  |  | binds |
| ATTATTGACTTAATTACTAGTTGACCAATA (dsDNA) | WRKY11 full length assumed | EMSA | double-stranded DNA, one strand shown | two complexes |  | binds |
| GATCTTTAGTTAACTTCCTCTAAAAAAACAGGCCACTCCAGATC (dsDNA) | T1, Aebp2 223-496 (Mus musculus) | competition binding | double-stranded DNA, one strand shown |  | labelled T1 probe | binds |
| GCCGCCCGCGGCAGCCAAGA (dsDNA (Homo sapiens); 5-methylcytosine) | T2, ZFP57 residues 227-287 C232F (Homo sapiens) | EMSA | double-stranded DNA, one strand shown |  |  | binds |
| GATCTTTAGTTAACTTCCTCTCAGGCCACTCCAGATC (dsDNA) | T1, Aebp2 223-496 (Mus musculus) | competition binding | double-stranded DNA, one strand shown |  | labelled T1 probe | no binding |
| TTATTCAGCCATCAAAAGTTGACAAATAAT (dsDNA) | WRKY11 full length assumed | EMSA | double-stranded DNA, one strand shown |  |  | no binding |
| DNA 1 AGGATTGTGCAATAT / DNA 2 ATATTGCGCAATCCT (dsDNA; 5mC, mismatch at central CpG) | CEBPB 269-344 (Homo sapiens, UniProt P17676) | fluorescence polarization | double-stranded DNA |  |  | binds |
| TTATTCAGCCATCAAAAGTTGACGAATAAT (dsDNA) | WRKY11 full length assumed | EMSA | double-stranded DNA, one strand shown |  |  | no binding |
| UAUUUUGUUGUCGAAAAUGGGACAGGA (ssRNA) | brat | EMSA | RNA |  |  | binds |
| ACGUGUUACUGAUUCGAUCAGGCAUGAGU (ssRNA (Bacillus subtilis); hairpin, two internal loops) | glcT 1-60 (Bacillus subtilis, UniProt O31691) | EMSA | folded RNA |  |  | binds |

Excerpt of the above:
| Sequence | target | method | form | setting | added | binding |
| --- | --- | --- | --- | --- | --- | --- |
| GCCGCCCGCGGCAGCCAAGA (dsDNA (Homo sapiens); 5-methylcytosine) | T2, ZFP57 residues 227-287 C232F (Homo sapiens) | EMSA | double-stranded DNA, one strand shown |  |  | binds |
| GATCTTTAGTTAACTTCCTCTCAGGCCACTCCAGATC (dsDNA) | T1, Aebp2 223-496 (Mus musculus) | competition binding | double-stranded DNA, one strand shown |  | labelled T1 probe | no binding |
| TTATTCAGCCATCAAAAGTTGACAAATAAT (dsDNA) | WRKY11 full length assumed | EMSA | double-stranded DNA, one strand shown |  |  | no binding |
| DNA 1 AGGATTGTGCAATAT / DNA 2 ATATTGCGCAATCCT (dsDNA; 5mC, mismatch at central CpG) | CEBPB 269-344 (Homo sapiens, UniProt P17676) | fluorescence polarization | double-stranded DNA |  |  | binds |
